Results gathered from unrelated publications.
Several values in a cell are separate wells, animals, samples, runs or records.
USP5: Ubiquitin carboxyl-terminal hydrolase 5 (USP5, Homo sapiens, UniProt P45974)
Sequence of UniProt P45974 (whole entry, looked up): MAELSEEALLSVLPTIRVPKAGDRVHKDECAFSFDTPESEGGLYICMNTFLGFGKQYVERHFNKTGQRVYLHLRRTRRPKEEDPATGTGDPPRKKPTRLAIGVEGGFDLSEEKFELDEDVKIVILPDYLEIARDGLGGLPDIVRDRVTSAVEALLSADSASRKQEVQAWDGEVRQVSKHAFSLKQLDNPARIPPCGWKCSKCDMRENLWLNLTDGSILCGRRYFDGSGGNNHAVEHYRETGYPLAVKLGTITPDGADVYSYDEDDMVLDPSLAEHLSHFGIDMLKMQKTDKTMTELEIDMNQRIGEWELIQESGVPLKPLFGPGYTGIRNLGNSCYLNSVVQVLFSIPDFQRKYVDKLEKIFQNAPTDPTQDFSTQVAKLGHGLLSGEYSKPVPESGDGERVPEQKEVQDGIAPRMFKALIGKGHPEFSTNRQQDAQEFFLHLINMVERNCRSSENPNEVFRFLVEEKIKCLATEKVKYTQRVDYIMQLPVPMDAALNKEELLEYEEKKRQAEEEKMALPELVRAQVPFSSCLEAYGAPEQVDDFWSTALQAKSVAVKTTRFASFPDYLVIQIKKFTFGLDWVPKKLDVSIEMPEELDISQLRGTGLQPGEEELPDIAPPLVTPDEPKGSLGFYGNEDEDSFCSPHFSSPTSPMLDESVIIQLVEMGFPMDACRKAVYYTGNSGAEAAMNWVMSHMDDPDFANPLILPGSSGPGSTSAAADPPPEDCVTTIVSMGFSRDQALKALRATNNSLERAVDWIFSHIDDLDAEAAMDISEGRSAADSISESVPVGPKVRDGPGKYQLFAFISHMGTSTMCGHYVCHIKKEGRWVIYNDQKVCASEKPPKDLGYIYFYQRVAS
Coelenterazine h 2-monooxygenase: Coelenterazine h 2-monooxygenase (Renilla reniformis, UniProt P27652)
Sequence of UniProt P27652 (whole entry, looked up): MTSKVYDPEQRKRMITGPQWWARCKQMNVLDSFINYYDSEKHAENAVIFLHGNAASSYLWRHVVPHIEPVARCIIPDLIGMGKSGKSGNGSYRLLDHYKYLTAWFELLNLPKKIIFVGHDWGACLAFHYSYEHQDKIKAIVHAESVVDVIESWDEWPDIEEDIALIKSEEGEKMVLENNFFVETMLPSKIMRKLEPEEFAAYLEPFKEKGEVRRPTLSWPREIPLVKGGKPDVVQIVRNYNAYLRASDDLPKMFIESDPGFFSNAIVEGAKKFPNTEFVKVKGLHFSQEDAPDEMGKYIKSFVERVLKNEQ
Protein-S-isoprenylcysteine O-methyltransferase: Protein-S-isoprenylcysteine O-methyltransferase (Homo sapiens, UniProt O60725)
Sequence of UniProt O60725 (whole entry, looked up): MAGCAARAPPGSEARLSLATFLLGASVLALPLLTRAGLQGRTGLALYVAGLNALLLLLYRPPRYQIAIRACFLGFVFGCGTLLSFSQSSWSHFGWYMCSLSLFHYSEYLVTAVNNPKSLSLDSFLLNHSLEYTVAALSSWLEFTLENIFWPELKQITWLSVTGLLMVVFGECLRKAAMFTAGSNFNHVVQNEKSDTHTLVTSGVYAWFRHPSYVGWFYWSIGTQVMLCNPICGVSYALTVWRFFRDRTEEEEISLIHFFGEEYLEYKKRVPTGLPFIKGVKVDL
PTGS2: Prostaglandin G/H synthase 2 (PTGS2, Homo sapiens, UniProt P35354)
Sequence of UniProt P35354 (whole entry, looked up): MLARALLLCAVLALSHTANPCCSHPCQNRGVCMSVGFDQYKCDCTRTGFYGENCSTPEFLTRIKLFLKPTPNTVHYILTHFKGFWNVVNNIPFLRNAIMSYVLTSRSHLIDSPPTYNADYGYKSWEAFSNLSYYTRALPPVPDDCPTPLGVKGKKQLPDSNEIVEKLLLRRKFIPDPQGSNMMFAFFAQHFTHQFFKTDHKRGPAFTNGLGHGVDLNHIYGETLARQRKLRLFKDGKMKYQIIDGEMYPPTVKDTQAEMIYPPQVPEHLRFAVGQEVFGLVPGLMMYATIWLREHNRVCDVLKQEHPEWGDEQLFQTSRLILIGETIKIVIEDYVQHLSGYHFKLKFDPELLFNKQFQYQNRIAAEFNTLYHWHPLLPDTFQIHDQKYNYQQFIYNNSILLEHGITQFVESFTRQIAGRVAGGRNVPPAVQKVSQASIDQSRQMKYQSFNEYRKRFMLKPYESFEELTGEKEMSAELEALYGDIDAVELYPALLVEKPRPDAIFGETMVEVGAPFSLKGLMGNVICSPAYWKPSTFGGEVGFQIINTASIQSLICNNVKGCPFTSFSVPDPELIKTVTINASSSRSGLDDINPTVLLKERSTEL
GRK6: G protein-coupled receptor kinase 6 (GRK6, Homo sapiens, UniProt P43250)
Sequence of UniProt P43250 (whole entry, looked up): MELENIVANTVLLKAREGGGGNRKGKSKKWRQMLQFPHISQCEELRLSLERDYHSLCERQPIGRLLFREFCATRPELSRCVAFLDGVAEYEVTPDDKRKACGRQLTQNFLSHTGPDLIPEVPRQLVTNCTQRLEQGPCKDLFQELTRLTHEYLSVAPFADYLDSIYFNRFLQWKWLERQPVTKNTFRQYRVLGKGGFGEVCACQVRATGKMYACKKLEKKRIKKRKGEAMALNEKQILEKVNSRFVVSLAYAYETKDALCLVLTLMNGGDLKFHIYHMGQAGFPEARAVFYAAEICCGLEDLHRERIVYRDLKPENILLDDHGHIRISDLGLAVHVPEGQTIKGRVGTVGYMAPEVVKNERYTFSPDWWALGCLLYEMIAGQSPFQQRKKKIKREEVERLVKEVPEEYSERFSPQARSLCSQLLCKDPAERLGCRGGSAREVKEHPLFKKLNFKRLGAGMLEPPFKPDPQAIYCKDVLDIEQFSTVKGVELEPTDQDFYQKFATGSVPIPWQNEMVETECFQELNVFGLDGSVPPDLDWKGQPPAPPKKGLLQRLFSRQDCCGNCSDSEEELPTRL
MAST3: Microtubule-associated serine/threonine-protein kinase 3 (MAST3, Homo sapiens, UniProt O60307)
Sequence of UniProt Q02127 (whole entry, looked up): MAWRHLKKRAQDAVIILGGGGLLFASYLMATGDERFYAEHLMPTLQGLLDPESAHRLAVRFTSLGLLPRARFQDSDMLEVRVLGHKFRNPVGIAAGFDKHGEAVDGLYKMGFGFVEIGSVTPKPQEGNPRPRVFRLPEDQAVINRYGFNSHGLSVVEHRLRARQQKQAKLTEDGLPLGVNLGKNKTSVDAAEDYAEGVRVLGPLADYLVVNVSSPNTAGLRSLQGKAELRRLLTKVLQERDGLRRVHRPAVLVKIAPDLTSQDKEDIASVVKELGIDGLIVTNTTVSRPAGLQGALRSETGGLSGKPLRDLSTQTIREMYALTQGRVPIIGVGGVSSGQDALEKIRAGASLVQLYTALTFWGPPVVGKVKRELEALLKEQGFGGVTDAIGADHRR
Sequence of UniProt O60307 (whole entry, looked up): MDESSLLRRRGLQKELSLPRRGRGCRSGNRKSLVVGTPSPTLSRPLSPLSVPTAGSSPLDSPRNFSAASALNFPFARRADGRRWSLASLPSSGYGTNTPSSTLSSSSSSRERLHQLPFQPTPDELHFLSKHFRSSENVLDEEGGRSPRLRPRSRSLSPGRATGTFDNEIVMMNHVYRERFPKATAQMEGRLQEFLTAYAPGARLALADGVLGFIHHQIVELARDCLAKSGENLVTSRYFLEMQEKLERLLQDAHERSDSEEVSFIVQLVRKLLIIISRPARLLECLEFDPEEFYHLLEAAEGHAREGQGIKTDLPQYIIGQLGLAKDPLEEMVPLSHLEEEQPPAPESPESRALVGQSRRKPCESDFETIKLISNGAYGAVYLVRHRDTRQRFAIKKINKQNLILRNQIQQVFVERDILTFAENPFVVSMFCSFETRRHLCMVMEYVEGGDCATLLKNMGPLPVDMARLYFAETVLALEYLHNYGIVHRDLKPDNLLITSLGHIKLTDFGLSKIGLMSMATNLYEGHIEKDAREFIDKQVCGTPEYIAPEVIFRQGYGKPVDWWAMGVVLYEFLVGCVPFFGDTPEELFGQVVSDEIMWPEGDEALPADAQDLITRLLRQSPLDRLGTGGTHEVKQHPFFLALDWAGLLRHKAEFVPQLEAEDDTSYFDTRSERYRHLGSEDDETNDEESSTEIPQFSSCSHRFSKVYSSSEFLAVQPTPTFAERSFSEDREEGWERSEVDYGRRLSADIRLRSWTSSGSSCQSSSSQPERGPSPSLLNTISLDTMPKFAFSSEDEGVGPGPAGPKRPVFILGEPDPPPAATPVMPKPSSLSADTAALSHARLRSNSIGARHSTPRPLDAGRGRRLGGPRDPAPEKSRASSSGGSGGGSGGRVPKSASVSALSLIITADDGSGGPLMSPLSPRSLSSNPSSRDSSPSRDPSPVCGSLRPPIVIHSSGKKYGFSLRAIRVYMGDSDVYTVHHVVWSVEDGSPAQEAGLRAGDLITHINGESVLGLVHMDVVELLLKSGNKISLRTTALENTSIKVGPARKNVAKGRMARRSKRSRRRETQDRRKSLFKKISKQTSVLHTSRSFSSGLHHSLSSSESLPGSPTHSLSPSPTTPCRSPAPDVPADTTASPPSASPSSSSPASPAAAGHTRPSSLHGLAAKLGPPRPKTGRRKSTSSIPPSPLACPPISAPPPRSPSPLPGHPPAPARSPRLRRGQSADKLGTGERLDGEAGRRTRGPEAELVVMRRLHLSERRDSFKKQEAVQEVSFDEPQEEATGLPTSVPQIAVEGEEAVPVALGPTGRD
Sequence of UniProt P11838 (whole entry, looked up): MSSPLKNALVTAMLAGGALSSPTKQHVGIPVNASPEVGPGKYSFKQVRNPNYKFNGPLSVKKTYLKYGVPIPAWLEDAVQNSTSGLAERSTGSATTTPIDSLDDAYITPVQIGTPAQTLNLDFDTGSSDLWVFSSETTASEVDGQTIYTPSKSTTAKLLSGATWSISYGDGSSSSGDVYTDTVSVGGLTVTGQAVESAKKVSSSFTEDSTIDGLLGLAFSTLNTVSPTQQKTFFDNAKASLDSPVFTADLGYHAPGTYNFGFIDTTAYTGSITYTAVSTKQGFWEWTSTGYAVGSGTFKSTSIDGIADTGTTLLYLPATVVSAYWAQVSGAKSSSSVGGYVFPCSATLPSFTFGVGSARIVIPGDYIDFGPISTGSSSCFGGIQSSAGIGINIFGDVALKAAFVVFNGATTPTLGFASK
Sequence of UniProt P31941 (whole entry, looked up): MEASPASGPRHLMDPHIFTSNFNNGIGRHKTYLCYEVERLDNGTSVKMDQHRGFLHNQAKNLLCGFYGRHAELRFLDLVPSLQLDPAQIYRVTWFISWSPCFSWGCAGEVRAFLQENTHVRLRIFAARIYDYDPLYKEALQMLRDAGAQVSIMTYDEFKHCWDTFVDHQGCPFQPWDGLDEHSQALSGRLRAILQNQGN

SMILES	tested on	test	system	setting	quantity	value
O=C(CN1CCOCC1)Nc1ccc(C2CCCCC2)cc1		liver microsome stability	human liver microsomes	1 µM, without NADPH	hepatic clearance	3.9 mL/min/kg
O=C(O)CN1C(=O)Cc2ccccc2C1=O	USP5	enzyme activity, inhibitor		17 µM	inhibition	25%
CN1C=C/C(=C\c2cc[n+](C)c3ccccc23)c2ccccc21	Coelenterazine h 2-monooxygenase	luciferase activity, inhibitor, luminescence counter-screen		concentration not given, test 2	inhibition	120% and 133%
O=C1CO[C@H](CNC(=O)C2(c3ccc(Cl)cc3)CC2)CN1C1Cc2ccccc2C1	CXCR3 (Homo sapiens, UniProt P49682)	β-arrestin recruitment, antagonist		1 µM	inhibition	-4%
CCCCCCCCN(CCC(=O)Nc1ccccc1)C(=O)c1ncc[nH]1	Protein-S-isoprenylcysteine O-methyltransferase	enzyme activity	Sf9 membranes	50 µM, with: [3H]S-adenosylmethionine, biotin-farnesyl-L-cysteine	inhibition	34%
C[Si](C)(C)C[C@H](CN)CC(=O)O	P2Y receptor, rat	binding, radioligand binding		250 µM, with: labelled ATP analogue	inhibition	21%
CS(=O)(=O)c1ccc(-n2cc(C=NN=c3[nH]c(-c4ccc(Br)cc4)cs3)c(-c3ccc([N+](=O)[O-])cc3)n2)cc1 (mixture of isomers)	PTGS2	enzyme activity		0.01 µM	inhibition	6.39%
COC(=O)C(C#N)=Cc1ccc(C)o1	USP5	enzyme activity, inhibitor		17 µM	inhibition	10%
Cc1cccc(O[C@H]2CCC[C@@H](C(C)CNCc3ccncc3)C2)c1 (relative stereo)	GRK6	enzyme activity, inhibitor		1 µM	inhibition	9%
CCCCCCCCN(CCC(=O)Nc1ccccc1)C(=O)c1ccccn1	Protein-S-isoprenylcysteine O-methyltransferase	enzyme activity	Sf9 membranes	50 µM, with: [3H]S-adenosylmethionine, biotin-farnesyl-L-cysteine	inhibition	73%
N=C(N)NCCCC(NC(=O)C(CC(=O)NO)Cc1ccc2ccccc2c1)C(=O)NC(Cc1c[nH]c2ccccc12)C(=O)NC(CCC(=O)O)C(N)=O (stereo not drawn)	Matrix metalloproteinase-17 (Homo sapiens, UniProt Q9ULZ9)			1 µM	inhibition	1%
Cc1ccc(C)n1-c1cc(Cl)ccc1C(=O)O	USP5	enzyme activity, inhibitor		17 µM	inhibition	64%
CCCCCCCCN(CCC(=O)Nc1ccccc1)C(=O)c1ccc(OC)cc1	Protein-S-isoprenylcysteine O-methyltransferase	enzyme activity	Sf9 membranes	50 µM, with: [3H]S-adenosylmethionine, biotin-farnesyl-L-cysteine	inhibition	52%
NNC1(c2nnnn2Cc2ccc(Cl)cc2)CCN(Cc2ccccc2)CC1	Endothiapepsin (EAPA, Cryphonectria parasitica, UniProt P11838)	enzyme activity, inhibitor		200 µM	inhibition	46.1%
Cc1ccc(-c2nn(-c3ccc(S(C)(=O)=O)cc3)cc2C=NN=c2[nH]c(-c3ccc(Br)cc3)cs2)cc1 (mixture of isomers)	PTGS2	enzyme activity		10 µM	inhibition	71.8%
CCn1cc(C(=O)O)c(=O)c2c(N)c(F)c(NC3CCCCC3)cc21	PRKACG (Homo sapiens, UniProt P22612)	kinase activity		0.1 µM, with: ATP at Km	inhibition	7.6%
CS(=O)(=O)Nc1cccc(-c2csc3cnc(Nc4ccc(N5CCN(CCCCCOc6cccc7c6C(=O)N(C6CCC(=O)NC6=O)C7=O)CC5)cc4)nc23)c1 (stereo not drawn)	MAST3	probe labelling, inhibitor, KiNativ chemoproteomics	MOLT-4	1 µM	inhibition	12.7%
CC1CCC(C(C)C)C(OC(=O)Cn2c(-c3ccc(Br)cc3)[n+](C)c3ccccc32)C1.[Cl-] (stereo not drawn)	Coelenterazine h 2-monooxygenase	luciferase activity, inhibitor, luminescence counter-screen		concentration not given, test 1	inhibition	80.5% and 87.6%
CS(=O)(=O)c1ccc(-n2cc(C=NN=c3[nH]c(-c4ccc([N+](=O)[O-])cc4)cs3)c(-c3ccc([N+](=O)[O-])cc3)n2)cc1	PTGS2	enzyme activity		1 µM	inhibition	37.6%
C=CC(=O)Nc1cccc(-c2cnc3[nH]cc(C(=O)NC(C)(C)C)c3n2)c1	GRK6	enzyme activity, inhibitor		0.1 µM	inhibition	7%
CC(=O)C12NC(C)(C)CC1(C)C(=O)C1=C2c2c(c3c4n2C(C)(C)CC2=C4C4(CC(C)(C)NC(C)(C4)C2=O)CC3(C)C)C(=O)C(C)(C)N1 (single isomer, unassigned; (+))	TRPV3 (Homo sapiens, UniProt Q8NET8)	ion current, inhibitor, patch clamp	HEK-293T	50 µM	inhibition	11.4%
CS(=O)(=O)c1ccc(-n2cc(C=NN=c3[nH]c(-c4ccc([N+](=O)[O-])cc4)cs3)c(-c3ccc(Br)cc3)n2)cc1	PTGS2	enzyme activity		100 µM	inhibition	88.3%
CC(NN)c1nn(-c2ccccc2)c(=O)c2c(N)scc12 (stereo not drawn)	USP5	enzyme activity, inhibitor		17 µM	inhibition	69%
CN(C)C/C=C/C(=O)Nc1ccc2nc(NCCCCCN(C)C)nc(NCCCCCCN(C)C)c2c1	PRMT6 (Homo sapiens, UniProt Q96LA8)	enzyme activity, inhibitor, radiometric		10 µM	inhibition	80%

SMILES	tested on	test	system	setting	quantity	value
CCCCCCCCN(CCC(=O)Nc1ccccc1)C(=O)c1ccc(C(F)(F)F)cc1	Protein-S-isoprenylcysteine O-methyltransferase	enzyme activity	Sf9 membranes	50 µM, with: [3H]S-adenosylmethionine, biotin-farnesyl-L-cysteine	inhibition	18%
COc1cc(OC)c(F)c(/C=C/c2cnc3ccn(S(=O)(=O)c4cn(CCF)cn4)c3n2)c1F	ABL1 (Homo sapiens, UniProt P00519)			1000 nM	inhibition	0%
C/C=C(/C)C(=O)O[C@@H]1C=C(C)CC[C@]2(O)[C@@H](C(C)C)CC(=O)[C@]12C	PTGS2	enzyme activity, inhibitor		3.9 µg/mL	inhibition	0%
COc1cccc(-c2cc(F)c(NC(=O)Nc3sc(C)nc3C(=O)O)c(F)c2)c1	DHODH (Homo sapiens, UniProt Q02127)	enzyme activity, DCIP colorimetric		5.00 µM	inhibition	47.4% and 46.9% and 47.8%
Cl.Oc1ccc(Nc2nc(NCC3CCCO3)c3ccccc3n2)cc1 (stereo not drawn)	Coelenterazine h 2-monooxygenase	luciferase activity, inhibitor, luminescence counter-screen		concentration not given, test 3 new dilution	inhibition	106% and 97.3%
CC(C)Cc1ccc(-c2nn(-c3ccc(S(C)(=O)=O)cc3)cc2C=NN=c2[nH]c(-c3ccc(Br)cc3)cs2)cc1	PTGS2	enzyme activity		1 µM	inhibition	64.2%
CCCCOc1ccc(CSC(=N)N)cc1	USP5	enzyme activity, inhibitor		17 µM	inhibition	3%
C=CC(=O)Nc1cc(-c2nn(C3CCN(CCNC(=O)[C@H](C)CCC45CC6CC(CC(C6)C4)C5)CC3)c3ncnc(N)c23)ccc1Oc1ccccc1	MAST3	inhibitor, KiNativ profiling	biochemical	2 µM	inhibition	13.2%
O=C(O)c1cc(-c2ccc(CN3CCCC(CO)C3)o2)ccc1Cl (stereo not drawn)	DNA dC->dU-editing enzyme APOBEC-3A (Homo sapiens, UniProt P31941)	deaminase activity, inhibitor		concentration not given	inhibition	no inhibition
O=C1c2sc(-c3ccc(N4CCC(CO)CC4)nc3F)nc2CCN1c1cccnc1	L-type Ca2+ channel, dihydropyridine site	radioligand binding, BioPrint binding panel		1 µM, with: antagonist radioligand	inhibition	12%
NS(=O)(=O)c1ccc(CCNCc2ccc(-c3ccc(Cl)cc3)o2)cc1	DRD3 (Homo sapiens, UniProt P35462)	enzyme activity, inhibitor		10 µM	inhibition	42.2%
CCOC(=O)c1c(C)oc2c1C(=CNCCO)C(=O)c1ccccc1-2	USP5	enzyme activity, inhibitor		17 µM	inhibition	57%
C[Si]1(C[C@H](CN)CC(=O)O)CCCC1	alpha2 adrenergic receptor, rat	binding, radioligand binding		70 µM, with: [3H]rauwolscine	inhibition	4%
Cc1ccc2c(c1)sc(-c1ccc(N(C)C)cc1)[n+]2C.[I-]	Coelenterazine h 2-monooxygenase	luciferase activity, inhibitor, luminescence counter-screen		concentration not given, test 2	inhibition	83.2% and 64.4%
O=C(CN1CCOCC1)Nc1ccc([C@H]2[C@@H](F)[C@@H](F)C[C@@H](F)[C@H]2F)cc1		liver microsome stability	dog liver microsomes	1 µM	hepatic clearance	10 mL/min/kg
O=c1[nH]c(=S)c2c(n1N1CCOCC1)CCC2	USP5	enzyme activity, inhibitor		17 µM	inhibition	4%
C/C=C/C(=O)Nc1ccc2nc(NCCCCCN(C)C)nc(NCCCCCCN(C)C)c2c1	PRMT3 (Homo sapiens, UniProt O60678)	enzyme activity, inhibitor, radiometric		10 µM	inhibition	34%
O=C1c2sc(-c3ccc(N4CCC(F)C4)nc3F)nc2CCN1c1cccnc1 (stereo not drawn)	sodium channel site 2	radioligand binding		1 µM, with: antagonist radioligand	inhibition	1%
Nc1nnc2c(n1)-c1ccccc1C2=O	USP5	enzyme activity, inhibitor		17 µM	inhibition	62%
CC=C(C)C(=O)OC1CC2C(C=C(C)C3C(OC(C)=O)CC(=O)C13C)OC(=O)C2C (stereo not drawn)	PTGS2	enzyme activity, inhibitor		0.24 µg/mL	inhibition	0%
CCCCCCCCN(CCC(=O)Nc1ccccc1)C(=O)c1coc2ccccc12	Protein-S-isoprenylcysteine O-methyltransferase	enzyme activity	Sf9 membranes	50 µM, with: [3H]S-adenosylmethionine, biotin-farnesyl-L-cysteine	inhibition	47%
CO[C@@H]1OC[C@@H](O)[C@H](O)[C@H]1O	PTGS2	enzyme activity, inhibitor		3.9 µg/mL	inhibition	42.9%
CS(=O)(=O)c1ccc(-n2cc(C=NN=c3[nH]c(-c4ccc(Br)cc4)cs3)c(-c3ccc(Br)cc3)n2)cc1	PTGS2	enzyme activity		0.1 µM	inhibition	35.4%
CN(Cc1ccc(/C=C/C(=O)NO)cc1)CC12CC3CC(CC(C3)C1)C2	human Y2 receptor	agonist radioligand binding		0.05 µM	inhibition	-13%

Some of these lines once more:
SMILES	tested on	test	system	setting	quantity	value
C=CC(=O)Nc1cccc(-c2cnc3[nH]cc(C(=O)NC(C)(C)C)c3n2)c1	GRK6	enzyme activity, inhibitor		0.1 µM	inhibition	7%
CC(=O)C12NC(C)(C)CC1(C)C(=O)C1=C2c2c(c3c4n2C(C)(C)CC2=C4C4(CC(C)(C)NC(C)(C4)C2=O)CC3(C)C)C(=O)C(C)(C)N1 (single isomer, unassigned; (+))	TRPV3 (Homo sapiens, UniProt Q8NET8)	ion current, inhibitor, patch clamp	HEK-293T	50 µM	inhibition	11.4%
CS(=O)(=O)c1ccc(-n2cc(C=NN=c3[nH]c(-c4ccc([N+](=O)[O-])cc4)cs3)c(-c3ccc(Br)cc3)n2)cc1	PTGS2	enzyme activity		100 µM	inhibition	88.3%
